Experimental data of several laboratories.
Compare with care: the assays were run in different laboratories.
Organism: Hepatitis C virus

Cc1ccc2nc(-c3ccc(N=NNc4ccc(-c5nc6ccc(C)c(S(=O)(=O)O)c6s5)cc4)cc3)sc2c1S(=O)(=O)O  IC50 (viral replication, inhibitor, luciferase; Huh7.5; 72 h, replicon): > 100000 nM
Cc1ccc(S(=O)(=O)Nn2c3c(cc(-c4nc5ccccc5s4)c2=O)CCCC3)cc1  reduction (viral replication, qRT-PCR; Huh7.5 cells, genotype 4 ED-43/SG-Feo; non-toxic concentration): 23.3%
NCc1ccc(F)c(Oc2ccccc2)c1F  EC50 (viral replication, luciferase replicon; Huh-7 subgenomic replicon, genotype 1b; 72 h): inactive
Cc1ccc(N2C(=O)C=CC2=O)c(Br)c1  EC50 (viral replication, inhibitor, luciferase; Huh7.5; 72 h, replicon): > 100000 nM
CC(=O)O[C@@H]1[C@@H](OC(C)=O)[C@H](Sc2sc(C(=O)c3ccc(Br)cc3)c(N)c2-c2nc3ccccc3s2)OC[C@H]1OC(C)=O  viral reduction (Huh7.5, genotype 4; non-toxic dose NG, mean over three titres): 66.7%
Cc1ccc(S(=O)(=O)Nn2c3c(cc(-c4nc5ccccc5s4)c2=O)CCCCCC3)cc1  reduction (viral replication, qRT-PCR; Huh7.5 cells, genotype 4 ED-43/SG-Feo; non-toxic concentration): 30%
N#C/C(=C\c1ccc(O)c(O)c1)C(=O)c1ccc(O)c(O)c1  IC50 (viral replication, inhibitor, luciferase; Huh7.5; 72 h, replicon): 18000 nM
COc1ccc2c(c1)C=C(C(=O)N1C[C@@H](C)O[C@@H](C)C1)Cn1c-2c(C2CCCCC2)c2ccc(C(=O)NS(=O)(=O)N(C)C)cc21  EC50 (viral replication, inhibitor; Huh-7, GETYPE1A; replicon): 40 nM
CC[C@@H](N)c1ccc(Cl)c(Oc2ccccc2)c1F  EC50 (viral replication, luciferase replicon; Huh-7 subgenomic replicon, genotype 1b; 72 h): inactive
O=C(O)/C=C/c1ccc(NC(=O)C2(NC(=O)c3ccc4c(C5CCCCC5)c5n(c4c3)CC(=O)Nc3ccccc3-5)CCCC2)cc1  EC50 (viral replication, inhibitor; Huh-7, GETYPE1A; replicon): 10 nM
OCc1nc(-c2cnc(N3CCC(Oc4ccccc4C(F)(F)F)CC3)s2)no1  EC50 (viral replication, inhibitor, qPCR; Huh-7, GETYPE1B; 96 h, replicon): 62 nM

Excerpt of the above:
Cc1ccc(S(=O)(=O)Nn2c3c(cc(-c4nc5ccccc5s4)c2=O)CCCCCC3)cc1  reduction (viral replication, qRT-PCR; Huh7.5 cells, genotype 4 ED-43/SG-Feo; non-toxic concentration): 30%
